Published values collected from several papers.
Parts stem from different laboratories: compare values within a part only. Changes are numbered by the printed parent chain.

Sample 1
Target: Max dimerization protein 1, bHLH-zipper, MAX partner unstated (MXD1, Homo sapiens, UniProt Q05195, residues 56-136)
Method: protein-binding microarray
Form: double-stranded DNA, one strand shown
Sample: in vitro
Tested at: not given
Notes: k-mer, scored over probes, only values ≥0.25
Reading: higher = stronger binding
Quantity: E-score
Residues (chain): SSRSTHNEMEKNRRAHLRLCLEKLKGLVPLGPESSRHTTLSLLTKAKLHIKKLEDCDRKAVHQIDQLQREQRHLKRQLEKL
CGCGTGCC: 0.368
AAACCACG: 0.374
AATACACG: 0.321
ACCACGCG: 0.462
CGTGGCAC: 0.299
GACATGCA: 0.309
ACGAGGAG: 0.288
CCCCCTCC: 0.327

Sample 2
Target: RNA binding protein fox-1 homolog 2, RRM domain, GST-SBP tag (RBFOX2, Homo sapiens, UniProt O43251-10, residues 100-194)
Method: RNA Bind-n-Seq
Form: RNA
Sample: in vitro
Tested at: 365 nM
Notes: natural RNA segment, single round, ends assumed
Baseline: no-protein control
Reading: higher = stronger binding
Quantity: RBNS enrichment (R)
Constant ends, left off below: GGGAGUUCUACAGUCCGACGAUC … UGGAAUUCUCGGGUGCCAA
Target sequence (chain): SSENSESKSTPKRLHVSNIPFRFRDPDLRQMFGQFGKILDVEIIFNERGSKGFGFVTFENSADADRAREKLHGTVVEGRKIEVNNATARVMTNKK
AUGCACUGAGUAUGCAAUGCUAUCACUGUCUUUGACUGUGAUUUUAUGUUUAAAAAGUAUGUUCUAAAAUUAUUAUAUAUACAUGGGUGAAUUAUGUUUCCGAGGCACUG: 0.572
GUUAUCCACCUUGUACUAGUAAGUUUUAGCACUGAAUUCCUUCUUCACUGUUGUUUGUAUUUAUGAAAUUCUGAAAUUAUGGGGAAUCAGCGUAAUGAUUAAGUUAUUCA: 0.504
CCAUCUGUCCCACACGCUCCCUGGGGCUCUUAGUUCAGCUGCUGGCACUCGCAGGAUCCUGCAGUGCUGGGCCCAGAGCCCUUGGACAGGCCUCAGGAGUGGUCAGGACC: 0.281
UCAUGUAUUUAUAUGUUGUACACAGUACUGGCUGAUUCUGUAAAUGGAUGUAUUGUACAGAGAACAUGAACGUCUCUUCCUAAUUUUACAUCUUCAGCAUCAUUGCAUUA: 1.16
UGCUGCGGGAGCUGAAGCCUGUCCUGUCCCAGGGUAACCUGCUUACAUCUGGACUUCAGAAUCUGGCACACAACAAAAGUGCCUGGCACCCACUGCUGCUGCCUUUCAUU: 0.349
ACGGUCCUCUCAAGUGUCUAUUAGAUAGGCAAUAAGAACUGCAGUGUAGCUGAGUAACAUCUUUUAGCUGACUAUAAAUCACUUUGUUUUUAAACAAGAAAAGCUGUGCU: 0.315
CCCACUGCGUACUGUGUUUUUAAUUUCAUUUAACUUCUAGCAGACACGCUCAGUGUCUUUGAUAAAAUAGUGUCUUUUUUUCAUGUGUUUUUAUUUCAUUUCUAAGAUUU: 0.729
ACGGAAGUUGACGCUCAAACUCCUCCCCAAAGUGCCUGGACUUUCAUGAACCUAGAGAUGCUAUCGGUGACAUCCGCCGUUGUGUUGUUCUUUUGCAGCCGUCUGGGCCG: 0.372

Mixed results
P1: viral docking peptide; KGVKRKLFAEDSS; partner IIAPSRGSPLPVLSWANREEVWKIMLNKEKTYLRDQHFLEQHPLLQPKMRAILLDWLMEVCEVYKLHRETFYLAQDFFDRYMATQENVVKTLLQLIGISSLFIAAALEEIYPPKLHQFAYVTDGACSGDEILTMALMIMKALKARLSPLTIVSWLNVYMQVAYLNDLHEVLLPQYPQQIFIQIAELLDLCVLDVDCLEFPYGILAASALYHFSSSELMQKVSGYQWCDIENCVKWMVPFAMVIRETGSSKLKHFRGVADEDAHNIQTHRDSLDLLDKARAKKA
XRCC6 (Homo sapiens, UniProt P12956) — cross-linked residues (SMC1A (Homo sapiens, UniProt Q14683); cross-linking MS; cell fractions; added: DHSO): E479 to E10
P1 K6Q — normalised enrichment score (CCNE1, cyclin fold, Cln2 fusion (human); yeast growth competition, sequencing; yeast; strong parent motif; baseline: not given, higher = stronger binding): 7.64
CCDC86 (Homo sapiens, UniProt Q9H6F5) — cross-linked residues (MRTO4 (Homo sapiens, UniProt Q9UKD2); cross-linking MS; cell fractions; added: DSSO): K229 to K94
PTH2R (Homo sapiens, UniProt P49190) — cross-linked residues (ARHGEF6 (Homo sapiens, UniProt Q15052); cross-linking MS; cell fractions; added: DMTMM): D303 to K628
FAM98A (Homo sapiens, UniProt Q8NCA5) — interaction screen (RTCB (Homo sapiens, UniProt Q9Y3I0); cross-linking MS; hits only): cross-linked

Repeated from above (sample 1):
CGCGTGCC: 0.368
